Results from different studies.
Compare with care: the assays were run in different laboratories.
Observed: cell growth or viability

CC1(C)OC[C@@]2(C)[C@H]3CC[C@@H]4CN(Cc5ccc(Br)cc5)[C@@H](C5=CCOC5=O)C[C@H]4[C@]3(C)CC[C@H]2O1
cell death (MRC5; ATP luminescence; 25 µM, 72 h): 12.9%

COc1cccc(NC(=O)Nc2ccc(Oc3nc4ccccc4n4cnnc34)cc2)c1
viability (WISH; MTT; 6.25 µM, 24 h): 100%

CC1(C)OC[C@@]2(C)[C@H]3CC[C@@H]4CN(Cc5ccco5)[C@@H](C5=CCOC5=O)C[C@H]4[C@]3(C)CC[C@H]2O1
cell death (MRC5; ATP luminescence; 25 µM, 72 h): -2.9%

CC1(F)CN(C(=O)Cn2c(=O)c(C(=O)NCc3ccc(Cl)cc3)cc3nc(N4CCN(CC(=O)O)C4=O)cnc32)C1
CC50 (MRC5): > 40 µM

COc1cccc2c1C(=O)c1c(O)c3c(c(O)c1C2=O)C[C@@](O)(C(=O)CO)C[C@@H]3O[C@H]1C[C@H](N)[C@H](O)[C@H](C)O1
viability (SW480; MTT; 25 µg/mL): 54.4%

CNC(=O)c1cc(Oc2ccc(NC(=O)Nc3ccc(Cl)c(C(F)(F)F)c3)cc2)ccn1
viability (WISH; MTT; 1.56 µM, 24 h): 100%

CC(C)[C@@H](C)Nc1nc(-c2cccs2)nc(Cl)c1-c1ccccc1F
CC50 (HEK293; resazurin; 48 h): > 50 µM

CC(=O)OC[C@@]1(C)[C@H]2CC[C@@H]3CN(Cc4ccc(F)cc4)[C@@H](C4=CCOC4=O)C[C@H]3[C@]2(C)CC[C@H]1OC(C)=O
cell death (MRC5; ATP luminescence; 25 µM, 72 h): 7.1%

Nc1ccn([C@@H]2O[C@H](CO)[C@@H](O)C2(F)F)c(=O)n1
viability (MDA-MB-231; MTT; 5 µg/mL, 48 h): 46.8%

CC1(C)OC[C@@]2(C)[C@H]3CC[C@@H]4CN(Cc5ccc(F)c(Cl)c5)[C@@H](C5=CCOC5=O)C[C@H]4[C@]3(C)CC[C@H]2O1
cell death (MRC5; ATP luminescence; 25 µM, 72 h): 30.9%

Fc1cc(F)c(-c2c(Cl)nc(-c3cccs3)nc2NC2COC2)c(F)c1
CC50 (HEK293; resazurin; 48 h): 14.4 µM

COc1cc(/C=C/C(=O)C(=Cc2ccc(O)cc2)C(=O)/C=C/c2ccc(O)c(OC)c2)ccc1O
viability (WRL68; MTT; 12.4 µg/mL, 48 h): 89.4%

CC1(CNc2nc(-c3cccs3)nc(Cl)c2-c2c(F)cc(F)cc2F)CC1
CC50 (HEK293; resazurin; 48 h): > 50 µM

O=c1[nH]c2cc(-c3ccc(Cl)cc3)sc2c(=O)n1O
viability (HFF; MTS; 10 µM, 7 days): 78%

Fc1cc(F)c(-c2c(Cl)nc(-c3cccs3)nc2N2CCCOCC2)c(F)c1
CC50 (HEK293; resazurin; 48 h): > 50 µM

CC1(C)OC[C@@]2(C)[C@H]3CC[C@@H]4CN(Cc5ccc(O)cc5)[C@@H](C5=CCOC5=O)C[C@H]4[C@]3(C)CC[C@H]2O1
cell death (MRC5; ATP luminescence; 25 µM, 72 h): 18.1%

Repeated from above:
COc1cccc(NC(=O)Nc2ccc(Oc3nc4ccccc4n4cnnc34)cc2)c1
viability (WISH; MTT; 6.25 µM, 24 h): 100%
